Measurements gathered from unrelated publications.
Every numbered part comes from another study and shows a few of its results, in no order. Substitutions count along the parent as printed.

Study 1
Target: ABI1, truncated, D143A, DHFR fusion (Arabidopsis thaliana)
Technique: DHFR PCA, deep sequencing
Sample: yeast
Setting: methotrexate growth selection, single substitutions
With: (+)-ABA 0.11 µM
Relative to: wild-type fitted maximum
Direction: higher = stronger binding
Measurement: relative binding score
Parent: PYL1, truncated, DHFR fusion (Arabidopsis thaliana); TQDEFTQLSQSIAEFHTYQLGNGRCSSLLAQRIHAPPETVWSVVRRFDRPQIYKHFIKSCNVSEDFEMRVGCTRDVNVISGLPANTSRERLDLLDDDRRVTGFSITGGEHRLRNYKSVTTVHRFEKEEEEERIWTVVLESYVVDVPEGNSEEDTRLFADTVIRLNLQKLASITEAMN; partner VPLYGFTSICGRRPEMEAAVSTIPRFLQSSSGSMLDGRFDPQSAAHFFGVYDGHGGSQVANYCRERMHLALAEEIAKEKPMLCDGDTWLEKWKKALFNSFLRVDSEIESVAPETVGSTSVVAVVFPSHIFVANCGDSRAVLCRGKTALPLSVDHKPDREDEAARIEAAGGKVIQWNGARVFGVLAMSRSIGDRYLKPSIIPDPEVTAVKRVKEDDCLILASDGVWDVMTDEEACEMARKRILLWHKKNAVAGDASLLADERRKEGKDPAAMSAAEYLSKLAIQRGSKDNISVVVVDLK
R45F: -0.875%
R98S: -6.94%
S140H: 8.2%
R113H: 29%
R32H: 17.7%
L93C: 11%
L169P: 5.45%
L138W: -2.63%
G102V: 0.0113%
R132P: 48.6%
R123F: -8.44%
L164I: 6.23%
V145Y: -11.1%
R90L: 0.283%
N61H: 48.1%
Y53E: 0.827%

Study 2
Target: Centromere-binding protein 1, full length, N-terminal tag (CBF1, Saccharomyces cerevisiae, UniProt P17106, residues 1-351)
UniProt P17106, sequence (whole entry, looked up): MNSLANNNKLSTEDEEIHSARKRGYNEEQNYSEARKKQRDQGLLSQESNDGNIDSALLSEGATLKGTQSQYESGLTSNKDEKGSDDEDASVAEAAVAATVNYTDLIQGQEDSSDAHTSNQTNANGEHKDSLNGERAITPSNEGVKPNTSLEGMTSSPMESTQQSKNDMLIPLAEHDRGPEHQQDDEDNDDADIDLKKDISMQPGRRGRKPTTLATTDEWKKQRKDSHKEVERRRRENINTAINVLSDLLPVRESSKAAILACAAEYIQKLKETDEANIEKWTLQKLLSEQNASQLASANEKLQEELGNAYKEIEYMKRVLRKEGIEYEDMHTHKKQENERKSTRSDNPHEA
Technique: protein-binding microarray
Form: double-stranded DNA, one strand shown
Sample: in vitro
Concentration: 0.8 µM
Setting: whole 60-bp probe, no competitor
Direction: higher = stronger binding
Measurement: fluorescence intensity
Shared flanks, not repeated: … GTCTTGATTCGCTTGACGCTGCTG
GAAAACATGCTGGATAACGTGCATGATTCAATTTAG: 770 a.u.
GAATATCTTTTGAAACATCAGAAGTGTCCGTAGTAG: 559 a.u.
CTAGCTCTGTCAAACCCCGTGGAAACGCAAACTTTC: 586 a.u.
CCTAACTACTATAGGCGTGTGCAATAGCTTCGTACA: 511 a.u.
CTAATATAAATAAATCACGTCAAACGGTGCGTCTTC: 587 a.u.
CTAAGTAAAGTCGATCACGCCCTGTCAGGAACATTC: 902 a.u.
CTAAGACTTATATATCACGTAAAATTTGTCTCTTTC: 526 a.u.
CTATTAAATATAAGAATCACCACGTTTCAGGTCTTC: 581 a.u.
GAACTTGTTATCTTGGTGATGATCGCACAAGTATAG: 552 a.u.
CCTAACTACTATAGTCATGCTCTATAGCTTCGTACA: 613 a.u.
GAAATAATGAATACGCACATGAAACATAAAGGGTAG: 620 a.u.
GAATGAATAAATAAAATCGTGACTAATACGTCCTAG: 865 a.u.
GAATTTCTATAGAAGCACGTATATATCTTTAATTAG: 485 a.u.
GAAATTATTTGAAGTCACCTGGCCTTATTCAATTAG: 1920 a.u.
CTACTTTATATTTGTCACCTTTTCCGTATCGGCTTC: 565 a.u.
CTAGTGAACAGTGATCACATTAATGAATCAACCTTC: 582 a.u.
GAATACTGCGGTATTGAGCTGATGGAAATATAATAG: 523 a.u.
GAATGACGTTAACAACGCACGCCCGCTCCTTGCTAG: 507 a.u.
CTAAGCAAGCCACGCCATGTGATTAACCTTGCTTTC: 1680 a.u.
CTAACATTCAAAGAGTTCGTGACCAGTTATTGCTTC: 1120 a.u.
CCTAACTACTATAGCAACACGTCATAGCTTCGTACA: 541 a.u.
CTACGGGCGGCTATGCACGTTTGAACAAGTATATTC: 514 a.u.

Study 3
Target: Histone acetyltransferase KAT6A, winged helix 2, GST fusion (KAT6A, Homo sapiens, UniProt Q92794, residues 85-181)
Technique: protein binding microarray
Form: double-stranded DNA, one strand shown
Sample: in vitro
Concentration: not given
Setting: 8-mer, flanks averaged, mean of 2 arrays, mostly near background
Relative to: not given
Direction: higher = stronger binding
Measurement: E-score
Target sequence (chain): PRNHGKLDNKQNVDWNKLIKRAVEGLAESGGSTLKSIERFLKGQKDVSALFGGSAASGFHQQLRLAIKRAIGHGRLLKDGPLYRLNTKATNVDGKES
CTGACCGA: -0.0496
CCATGATC: -0.2
CTTAACGA: -0.0655
AGCGATGG: 0.00897
AACCTGGA: -0.0553
AAACACCG: 0.137
CGACGTGC: -0.0365
AGAACTGG: 0.0892
ACAGATAT: -0.0817
CACACATC: -0.0494
TGCGAGCA: 0.0445
GGTACGTA: -0.248
CTACCACA: -0.0828
GGAAGTAA: -0.0685
AAGCCGGT: 0.0666
AGAGTAAA: 0.00171
GCTGTAAC: -0.00349
AGTCAACG: -0.118
CCCTCGTA: -0.0749
AGCGTCGG: 0.0648
CGGTCATA: -0.0007
GCCAGCCA: 0.0443
AGGCGTTC: -0.0842
TCGTGACA: 0.033
GCAGTCAA: -0.0173

Study 4
Target: Interferon regulatory factor 5, full length, phosphomimetic (IRF5, Homo sapiens, UniProt Q13568-2, residues 1-514, S451D/S453D/S456D/S462D)
Technique: protein-binding microarray
Form: double-stranded DNA, one strand shown
Sample: in vitro
Concentration: 940 nM top
Setting: 60-bp whole probe
With: salmon DNA 0.4 mg/ml
Relative to: random background probes
Direction: higher = stronger binding
Measurement: fitted relative affinity
Shared flanks, not repeated: GCCTAGCAC … GTCTTGATTCGCTTGACGCTGCTG
GACGGCTTCGGGTATCGGGACGTGCTA: 0.574 z-score
TTAGGTATCGGACTGGGTGAGTGCTAG: 3.35 z-score
TTATATCTCAGTCTCGATTAGTGCTAG: 3.66 z-score
GACGATTTCAGTCTCGTGACGTGCTAG: 0.78 z-score
GAATGTCTTCCCCTCTCTTTGTGCTAG: 0.615 z-score
GACGATCTGGGGTTTCGAGACGTGCTA: 2.44 z-score
GACGATATCAGTCTCTAGACGTGCTAG: -0.0463 z-score
TTAGGTTTCCTTTCCCTCTAGTGCTAG: 2.53 z-score
TCAACAGTTTTATTTTAGACTGTGCTA: 0.694 z-score
GACGCTTCCCTTTTCCTGACGTGCTAG: 1.4 z-score
TCAAGTCCCACATCTCTGACTGTGCTA: 0.318 z-score
TCATGATTGGTTGAACAACTGTGCTAG: -0.357 z-score
TCATACCTGAATATCTTACTGTGCTAG: 0.335 z-score
TGCTTTGGACCCAGGGCTAAGTGCTAG: -0.685 z-score
GACGAACTGGGGTTTCGAGATGTGCTA: 1.93 z-score
AGGATCCTGGGAGGGAGAGCGTGCTAG: -0.103 z-score
TTAGATTTCAGACTGGAATAGTGCTAG: -0.143 z-score
GACGGTCTCCTTCTCCTGAGGTGCTAG: 0.338 z-score
GATGATTTCAGTTCCGAGACGTGCTAG: 0.974 z-score
TTAGGACTGGTCTATCGGTTAGTGCTA: -0.593 z-score
TTAGCACTGGGACTGGGTTAGTGCTAG: -0.293 z-score
TTTTTTTTACTTCGGGTGACGTGCTAG: 0.91 z-score
GCTTTTATCCCTGACAGAAGGTGCTAG: 0.411 z-score
TTAGGTATCGACTTTCGTTTAGTGCTA: 5.85 z-score
TTAGCACTGAGTTTCGATTAGTGCTAG: 7.18 z-score

Study 5
Target: CCNA1, cyclin fold, Cln2 fusion (human)
Technique: yeast growth competition, sequencing
Sample: yeast
Setting: weak parent motif
Relative to: not given
Direction: higher = stronger binding
Measurement: normalised enrichment score
Parent: FZR1 docking peptide (human); QDYERRLLRQIVI; partner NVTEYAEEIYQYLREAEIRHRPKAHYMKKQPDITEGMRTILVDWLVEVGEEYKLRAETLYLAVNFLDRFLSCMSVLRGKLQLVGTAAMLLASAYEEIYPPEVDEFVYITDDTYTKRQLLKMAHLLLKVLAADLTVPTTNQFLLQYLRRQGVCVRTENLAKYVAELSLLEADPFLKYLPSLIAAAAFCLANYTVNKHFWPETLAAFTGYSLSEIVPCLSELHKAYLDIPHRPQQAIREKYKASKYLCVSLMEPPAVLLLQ
V12A: 0.211
L8A: 0.114
L8F: 0.215
I13A: 0.159
R6A: 0.349
L7A: 0.394
D2A: 0.193

Study 6
Target: RNA binding protein fox-1 homolog 2, RRM domain, GST-SBP tag (RBFOX2, Homo sapiens, UniProt O43251-10, residues 100-194)
Technique: RNA Bind-n-Seq
Form: RNA
Sample: in vitro
Concentration: 365 nM
Setting: natural RNA segment, single round, ends assumed
Relative to: no-protein control
Direction: higher = stronger binding
Measurement: RBNS enrichment (R)
Shared flanks, not repeated: GGGAGUUCUACAGUCCGACGAUC … UGGAAUUCUCGGGUGCCAA
Construct (chain): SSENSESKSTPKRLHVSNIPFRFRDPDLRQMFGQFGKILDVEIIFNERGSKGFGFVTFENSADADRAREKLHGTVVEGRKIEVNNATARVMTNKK
GCCUCCUCCUUUCUCUGGCCUCUUCCCCCUUCCCUCUUCUCUUCAGCUAGGCUAGCUGGUUUGGAGUAGAAUGGCAACUAAUUCUAAUUUUUAUUUAUUAAAUAUUUGGG: 0.385
AUAAAUACCAGAAUUUACCAGAGUACACUUUUCUCUUCAGAUGACUCAAUUAUUAAAUAAAAGAAUAUUUCUUAUUUCUGGGUCAAUAUAAGGUACUGACUUCUGAUGCA: 2.23
UUGGGAGCCCCUGCCAGCCACCUGCACCUGUGGACAGUGGGUGGGGGCACUACUCCCCACUCAGAGCACAAAUGCAACUCCUUCCCCUACAAUCCCAUCCUGAGCCAUUG: 0.948
UAAUUUUAGUGUUUAAUGUUACAUGCUUAAAUUUUUUUCAGUUUUAACAGUGGCAUAUUUAGGCAUGGAAAUAUUAUUAUGAAAUUUAUUUUCAGGAUCUGCUAUAAGGU: 0.61
UCAAUGAACAGUAAUAAUUUCCCAAUUUACAGAUUAGUGUCUACAAAGGUUUUCUUACAUCUUCUUCCAUUGCAUAAUAUGCCUUGUGUAAUAGUUAAGAAAUCAUUUUU: 0.367
UGGUAGACUGGAUCCUGACCAGAAGGAGGUCUGAUAUAAUAUCCAUCCAGACAAGAAAUCAACAUGCUAUCAAGAACCAGGUUGAAGCAAAACUGAAAGUGUGUGAUAUU: 0.773
CAACCUGACCUCCGACUGUCAGUUUCCCUUGACACCAUCUUCAUAGAAAUACCUGACUCCUGUACCACAGUCCAGUUUGUCCCAGUAGCAGGGACACCAAGGCCAAUGGG: 0.275
GGUAAAGGGUGACCUUUUGUUUUUAUAUCUAAUUUCUCAAUUUCUUUAUAUGCAUUUUUAGAAUAAUUUGAGAGAUUAAAUGCUGCUUGAAACUAUUAUACUUUGAGUUU: 6.25
GGCUGCGCCUGCUGCCUCCAGCCCUGAGGAUGGCAUCUAGUGUGCCCGUGCGUGGCCAUACCCUGCCUCCCUCUCUGGCCCUGGGAGGGCAGCUUGGAGCCCAGGUAGGG: 0.799
AAUUGAACAAGAAAUGCAUCUGUCUUAGAAACUGGAGAUUAUUUGAUGUUAGGUAAAACAUGUAAUUGUUUCUCUGGCAAAUUUGUAUCAGUAAUUUGAAAAUGAGAUAU: 0.955
AAGUCAAACGAGGAAUUUAAAAAAGCAAAAGUUGACCGAAGGUGCAUUUUUGUUUAGACUCCCUGAGGUUCCGUUUUACACAUGAUCCAACGUUAACUACCUUUUUUUCU: 0.483
CCUCUAGGAUGAGCUCAGAGCGAGAGAUGACACAAUGCCUCACUCAGGCCCCGGGCUCCCUGGCCACAAGCUUUUUCUAUCCUGUUUUCAUGACAGAGAAGGGGAAGCCC: 0.204

A few entries again (study 4):
TCATGATTGGTTGAACAACTGTGCTAG: -0.357 z-score
TCATACCTGAATATCTTACTGTGCTAG: 0.335 z-score
TGCTTTGGACCCAGGGCTAAGTGCTAG: -0.685 z-score
GACGAACTGGGGTTTCGAGATGTGCTA: 1.93 z-score
AGGATCCTGGGAGGGAGAGCGTGCTAG: -0.103 z-score
TTAGATTTCAGACTGGAATAGTGCTAG: -0.143 z-score
GACGGTCTCCTTCTCCTGAGGTGCTAG: 0.338 z-score
GATGATTTCAGTTCCGAGACGTGCTAG: 0.974 z-score
TTAGGACTGGTCTATCGGTTAGTGCTA: -0.593 z-score
TTAGCACTGGGACTGGGTTAGTGCTAG: -0.293 z-score
TTTTTTTTACTTCGGGTGACGTGCTAG: 0.91 z-score
GCTTTTATCCCTGACAGAAGGTGCTAG: 0.411 z-score
TTAGGTATCGACTTTCGTTTAGTGCTA: 5.85 z-score
